Results gathered from unrelated publications.
Every numbered part comes from another study and shows a few of its results, in no order.
Chain of UniProt P10721 (whole entry, unmodified, looked up): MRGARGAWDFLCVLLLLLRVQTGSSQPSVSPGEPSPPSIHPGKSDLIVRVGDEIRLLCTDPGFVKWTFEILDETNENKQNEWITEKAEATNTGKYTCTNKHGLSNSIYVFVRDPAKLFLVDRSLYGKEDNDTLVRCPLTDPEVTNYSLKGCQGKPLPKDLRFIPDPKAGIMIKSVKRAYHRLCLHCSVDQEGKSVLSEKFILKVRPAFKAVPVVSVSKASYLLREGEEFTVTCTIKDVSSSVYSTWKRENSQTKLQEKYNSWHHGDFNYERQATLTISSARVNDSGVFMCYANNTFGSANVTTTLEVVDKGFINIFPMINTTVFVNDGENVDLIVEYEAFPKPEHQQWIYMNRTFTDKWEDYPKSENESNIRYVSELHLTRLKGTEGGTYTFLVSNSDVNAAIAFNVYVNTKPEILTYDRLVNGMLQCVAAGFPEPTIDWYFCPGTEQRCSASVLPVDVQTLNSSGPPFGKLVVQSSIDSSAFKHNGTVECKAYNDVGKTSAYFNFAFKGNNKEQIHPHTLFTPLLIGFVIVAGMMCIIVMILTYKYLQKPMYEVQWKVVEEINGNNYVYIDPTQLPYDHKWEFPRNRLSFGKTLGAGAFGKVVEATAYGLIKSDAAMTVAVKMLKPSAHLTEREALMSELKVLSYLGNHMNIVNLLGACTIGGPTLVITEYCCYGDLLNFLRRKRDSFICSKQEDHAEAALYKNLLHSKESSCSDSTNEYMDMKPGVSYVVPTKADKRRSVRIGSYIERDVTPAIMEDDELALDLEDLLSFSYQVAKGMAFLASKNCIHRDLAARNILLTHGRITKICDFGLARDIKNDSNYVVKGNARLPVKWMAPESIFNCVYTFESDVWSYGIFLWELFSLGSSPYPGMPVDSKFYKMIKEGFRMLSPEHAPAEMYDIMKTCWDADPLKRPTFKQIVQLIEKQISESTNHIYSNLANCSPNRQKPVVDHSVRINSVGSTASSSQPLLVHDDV
Chain of UniProt P42336 (whole entry, unmodified, looked up): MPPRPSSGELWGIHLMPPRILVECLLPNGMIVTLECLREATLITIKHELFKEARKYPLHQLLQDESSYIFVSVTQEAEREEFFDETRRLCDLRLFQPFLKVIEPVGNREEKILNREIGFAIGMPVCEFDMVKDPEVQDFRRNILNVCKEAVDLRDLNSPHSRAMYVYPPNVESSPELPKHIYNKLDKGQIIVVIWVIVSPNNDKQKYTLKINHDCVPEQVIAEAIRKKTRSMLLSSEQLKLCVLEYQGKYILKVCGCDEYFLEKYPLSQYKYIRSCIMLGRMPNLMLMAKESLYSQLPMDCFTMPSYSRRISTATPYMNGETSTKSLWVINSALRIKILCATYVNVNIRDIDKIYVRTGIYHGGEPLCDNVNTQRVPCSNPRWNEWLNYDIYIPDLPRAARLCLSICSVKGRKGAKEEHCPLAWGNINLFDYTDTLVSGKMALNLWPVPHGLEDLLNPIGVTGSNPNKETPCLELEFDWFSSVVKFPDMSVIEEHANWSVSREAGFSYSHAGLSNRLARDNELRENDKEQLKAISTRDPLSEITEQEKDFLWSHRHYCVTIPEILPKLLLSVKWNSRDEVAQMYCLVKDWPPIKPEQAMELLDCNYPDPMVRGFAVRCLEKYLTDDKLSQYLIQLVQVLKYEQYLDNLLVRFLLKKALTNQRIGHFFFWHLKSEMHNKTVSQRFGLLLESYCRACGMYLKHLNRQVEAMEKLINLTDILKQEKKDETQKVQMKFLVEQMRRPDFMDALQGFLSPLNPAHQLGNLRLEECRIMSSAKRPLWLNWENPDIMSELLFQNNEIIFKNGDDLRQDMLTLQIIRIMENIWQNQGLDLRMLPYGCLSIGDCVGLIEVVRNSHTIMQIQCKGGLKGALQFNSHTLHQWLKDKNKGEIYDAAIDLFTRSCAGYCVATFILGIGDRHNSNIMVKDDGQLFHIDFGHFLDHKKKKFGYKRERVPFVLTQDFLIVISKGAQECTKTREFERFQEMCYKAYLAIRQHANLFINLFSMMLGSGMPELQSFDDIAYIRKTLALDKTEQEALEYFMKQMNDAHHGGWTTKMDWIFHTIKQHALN
Chain of UniProt P78356 (whole entry, looked up): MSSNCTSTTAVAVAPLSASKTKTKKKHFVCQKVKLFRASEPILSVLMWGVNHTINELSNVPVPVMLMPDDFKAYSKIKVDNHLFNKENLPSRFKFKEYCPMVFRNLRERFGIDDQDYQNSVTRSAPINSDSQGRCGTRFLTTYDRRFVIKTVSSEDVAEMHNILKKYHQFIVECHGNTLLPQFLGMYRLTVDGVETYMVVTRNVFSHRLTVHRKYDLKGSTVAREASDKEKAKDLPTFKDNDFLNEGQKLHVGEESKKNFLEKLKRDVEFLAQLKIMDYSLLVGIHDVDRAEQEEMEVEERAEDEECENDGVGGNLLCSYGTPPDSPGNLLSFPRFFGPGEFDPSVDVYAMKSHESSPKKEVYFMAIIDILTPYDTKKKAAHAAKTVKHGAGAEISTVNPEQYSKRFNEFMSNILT
Chain of UniProt Q13164 (whole entry, looked up): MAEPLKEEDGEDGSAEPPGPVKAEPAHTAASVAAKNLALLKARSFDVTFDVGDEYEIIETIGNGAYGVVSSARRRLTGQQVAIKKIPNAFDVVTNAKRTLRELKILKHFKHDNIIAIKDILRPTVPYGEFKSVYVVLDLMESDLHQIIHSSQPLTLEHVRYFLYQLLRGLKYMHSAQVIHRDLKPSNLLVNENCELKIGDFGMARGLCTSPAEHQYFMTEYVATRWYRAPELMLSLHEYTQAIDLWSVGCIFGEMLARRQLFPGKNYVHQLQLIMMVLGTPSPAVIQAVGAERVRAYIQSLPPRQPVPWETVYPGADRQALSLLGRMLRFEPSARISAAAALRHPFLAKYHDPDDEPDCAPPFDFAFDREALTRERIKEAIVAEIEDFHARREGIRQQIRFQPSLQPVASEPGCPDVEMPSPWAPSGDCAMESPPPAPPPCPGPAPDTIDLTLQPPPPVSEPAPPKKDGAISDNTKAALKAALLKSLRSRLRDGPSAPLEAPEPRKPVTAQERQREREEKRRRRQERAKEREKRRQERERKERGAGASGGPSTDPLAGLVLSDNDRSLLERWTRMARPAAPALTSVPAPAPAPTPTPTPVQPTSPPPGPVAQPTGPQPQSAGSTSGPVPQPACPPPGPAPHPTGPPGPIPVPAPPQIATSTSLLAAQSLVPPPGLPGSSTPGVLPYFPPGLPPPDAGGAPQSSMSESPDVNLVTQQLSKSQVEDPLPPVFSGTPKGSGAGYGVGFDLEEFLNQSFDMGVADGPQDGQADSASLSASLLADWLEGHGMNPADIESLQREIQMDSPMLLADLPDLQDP
Chain of UniProt P54756 (whole entry, looked up): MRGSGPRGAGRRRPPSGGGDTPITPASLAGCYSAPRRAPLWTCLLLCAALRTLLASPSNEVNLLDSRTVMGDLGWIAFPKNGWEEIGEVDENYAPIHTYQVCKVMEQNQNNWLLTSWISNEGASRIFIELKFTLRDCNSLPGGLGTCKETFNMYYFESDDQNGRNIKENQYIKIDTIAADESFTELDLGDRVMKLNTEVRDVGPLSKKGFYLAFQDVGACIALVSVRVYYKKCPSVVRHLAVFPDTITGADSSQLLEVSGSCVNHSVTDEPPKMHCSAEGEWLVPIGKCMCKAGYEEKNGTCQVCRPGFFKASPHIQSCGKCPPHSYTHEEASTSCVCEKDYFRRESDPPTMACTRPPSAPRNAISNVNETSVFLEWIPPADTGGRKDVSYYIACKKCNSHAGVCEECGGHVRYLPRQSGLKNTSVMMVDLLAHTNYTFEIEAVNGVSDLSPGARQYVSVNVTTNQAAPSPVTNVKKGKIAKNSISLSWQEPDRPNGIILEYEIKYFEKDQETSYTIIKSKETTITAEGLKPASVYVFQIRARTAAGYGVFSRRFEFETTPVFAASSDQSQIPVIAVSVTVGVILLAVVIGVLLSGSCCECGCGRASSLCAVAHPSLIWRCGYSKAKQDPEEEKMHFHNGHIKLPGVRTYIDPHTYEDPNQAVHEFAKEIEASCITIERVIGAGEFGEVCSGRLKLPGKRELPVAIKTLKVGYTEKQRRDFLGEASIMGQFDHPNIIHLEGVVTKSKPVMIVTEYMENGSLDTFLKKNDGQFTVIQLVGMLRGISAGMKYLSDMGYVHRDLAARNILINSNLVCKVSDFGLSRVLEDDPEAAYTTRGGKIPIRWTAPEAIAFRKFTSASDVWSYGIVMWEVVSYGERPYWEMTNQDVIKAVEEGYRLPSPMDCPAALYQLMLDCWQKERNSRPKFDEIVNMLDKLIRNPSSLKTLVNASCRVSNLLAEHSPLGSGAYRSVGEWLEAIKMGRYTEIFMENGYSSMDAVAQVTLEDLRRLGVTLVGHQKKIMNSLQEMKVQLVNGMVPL

Series 1 — observed: enzyme activity; mode: inhibitor; concentration: 0.5 µM; reference: control
Target: Dual specificity tyrosine-phosphorylation-regulated kinase 2 (DYRK2, Homo sapiens, UniProt Q92630)
Chain of UniProt Q92630 (whole entry, looked up): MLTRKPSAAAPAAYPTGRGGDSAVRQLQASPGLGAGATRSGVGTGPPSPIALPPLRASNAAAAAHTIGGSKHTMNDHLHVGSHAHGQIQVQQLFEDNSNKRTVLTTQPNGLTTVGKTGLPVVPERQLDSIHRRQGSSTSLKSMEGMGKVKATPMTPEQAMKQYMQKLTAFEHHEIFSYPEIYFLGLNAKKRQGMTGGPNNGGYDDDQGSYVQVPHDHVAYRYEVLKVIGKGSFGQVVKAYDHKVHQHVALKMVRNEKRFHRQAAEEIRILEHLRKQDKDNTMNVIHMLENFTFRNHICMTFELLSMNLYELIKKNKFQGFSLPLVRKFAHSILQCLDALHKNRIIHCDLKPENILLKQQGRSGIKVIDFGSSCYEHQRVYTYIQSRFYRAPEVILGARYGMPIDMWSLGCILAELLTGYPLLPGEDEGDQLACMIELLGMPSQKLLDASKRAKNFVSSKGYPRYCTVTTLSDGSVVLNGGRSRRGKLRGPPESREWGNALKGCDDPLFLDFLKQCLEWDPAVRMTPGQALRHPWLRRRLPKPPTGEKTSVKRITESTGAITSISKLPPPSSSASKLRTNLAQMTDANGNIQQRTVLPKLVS
The remaining activity of O=C(NC(NC(=S)Nc1ccc(F)c([N+](=O)[O-])c1)C(Cl)(Cl)Cl)C(c1ccccc1)c1ccccc1 (stereo not drawn) is reported as 102%.
The remaining activity of CCN(CC)CCNC(=O)c1c(C)[nH]c(/C=C2\C(=O)Nc3ccc(Cl)cc32)c1C is reported as 82.7%.
With CCN(CC)CCNC(=O)c1c(C)[nH]c(/C=C2\C(=O)Nc3ccc(F)cc32)c1C the remaining activity was 82.6%.
CN([C@@H](Cc1ccc(OS(=O)(=O)c2cccc3cnccc23)cc1)C(=O)N1CCN(c2ccccc2)CC1)S(=O)(=O)c1cccc2cnccc12 has a remaining activity of 97.7%.
For c1ccc(-c2[nH]ncc2-c2ccnc3ccccc23)nc1, the remaining activity was 113%.
The remaining activity of N#Cc1c(NC(=O)c2cccc3ccccc23)sc2c1CCCC2 is reported as 119%.
Ic1cccc(CSc2nnc(-c3ccncc3)o2)c1 has a remaining activity of 96.8%.
For CN(C)C[C@H]1CCn2c(c(C3=C(c4cn(C)c5ccccc45)C(=O)NC3=O)c3ccccc32)C1, the remaining activity was 102%.
The remaining activity of N#C/C(=C\c1ccc(O)c(O)c1)C(=O)NCc1ccccc1 is reported as 103%.
Cc1cc2ncc(-c3ccccc3)nc2cc1C has a remaining activity of 95.9%.
CCOc1nc(NC(=O)Cc2cc(OC)ccc2OC)cc(N)c1C#N gave a remaining activity of 111%.
Cc1nc2cc3nc(-c4cccs4)cnc3cc2n1C has a remaining activity of 104%.
Cn1nc2c3c(cccc31)C(=O)c1ccccc1-2 has a remaining activity of 99.5%.
With O=c1cc(-c2cccc3c2Sc2ccccc2S3)oc(N2CCOCC2)c1 the remaining activity was 104%.
CCN(CC)C(=O)c1ccc(Nc2nc(OCC3CCCCC3)c3[nH]cnc3n2)cc1 has a remaining activity of 98.2%.
With O=C(Nc1cccc(Nc2nccc(Nc3cccc(C(F)(F)F)c3)n2)c1)C1CC1 the remaining activity was 106%.

Series 2 — observed: cell-free assay; technique: competition with immobilised ligand; concentration: 0.1 µM
Structure (SMILES): O=C(NCCCC1CCCCC1)c1ccc(CNC(=O)c2cnn(-c3ccccc3)c2C(F)(F)F)cc1
It gave 100% for remaining binding (NUAK family SNF1-like kinase 2 (NUAK2, Homo sapiens, UniProt Q9H093)).
The remaining binding was 100% (Epidermal growth factor receptor (EGFR, Homo sapiens, UniProt P00533, del747-752/P753S)).
Macrophage-stimulating protein receptor (MST1R, Homo sapiens, UniProt Q04912) — remaining binding: 100%.
The remaining binding was 70% (Phosphatidylinositol 4,5-bisphosphate 3-kinase catalytic subunit alpha isoform (PIK3CA, Homo sapiens, UniProt P42336, I800L)).
For Mitogen-activated protein kinase 7 (MAPK7, Homo sapiens, UniProt Q13164): remaining binding read 100%.
Phosphatidylinositol 5-phosphate 4-kinase type-2 beta (PIP4K2B, Homo sapiens, UniProt P78356) — remaining binding: 96%.
For Ephrin type-A receptor 5 (EPHA5, Homo sapiens, UniProt P54756): remaining binding read 92%.
The remaining binding was 90% (Phosphatidylinositol 4-phosphate 5-kinase type-1 gamma (PIP5K1C, Homo sapiens, UniProt O60331)).
For Mast/stem cell growth factor receptor Kit (KIT, Homo sapiens, UniProt P10721): remaining binding read 100%.
The remaining binding was 88% (Receptor-type tyrosine-protein kinase FLT3 (FLT3, Homo sapiens, UniProt P36888, N841I)).
For Mast/stem cell growth factor receptor Kit (KIT, Homo sapiens, UniProt P10721, V559D/V654A): remaining binding read 100%.
For Serine/threonine-protein kinase TAO1 (TAOK1, Homo sapiens, UniProt Q7L7X3): remaining binding read 96%.
Dual specificity mitogen-activated protein kinase kinase 6 (MAP2K6, Homo sapiens, UniProt P52564) — remaining binding: 79%.
It gave 100% for remaining binding (Mast/stem cell growth factor receptor Kit (KIT, Homo sapiens, UniProt P10721, T670I/V559D)).

Series 3 — technique: RNA Bind-n-Seq; form: RNA; matrix: in vitro; concentration: 20 nM; setting: 6-mer, flanks averaged, single round; together with: 150 mM KCl; reference: input library; direction: higher = stronger binding
Target: TAR DNA-binding protein 43, full length, His tag (TARDBP, Homo sapiens, UniProt Q13148, residues 1-414)
`CAGUCU` — result for “6-mer enrichment (R)”: 0.586.
`UUGGCC` — result for “6-mer enrichment (R)”: 0.773.
`GCCACC`: “6-mer enrichment (R)” 0.741.
For `UAUGGA`, “6-mer enrichment (R)” read 0.89.
`UGCCGC`: “6-mer enrichment (R)” 0.816.
`GCCGGU`: “6-mer enrichment (R)” 1.3.
`CUUCCC` — result for “6-mer enrichment (R)”: 0.593.
`AGCGGC` — result for “6-mer enrichment (R)”: 1.47.

Single results of other studies
CC(C)n1cnc(-c2ccc(F)cc2)c1-c1ncc(C(=O)Nc2ccc(N3CCN(C)CC3)cc2)[nH]1 — result for “any adverse event incidence”: 63.6% (IPF patients; 30 mg once daily, adverse event, together with: standard of care).

Repeated from above (series 1):
CCN(CC)C(=O)c1ccc(Nc2nc(OCC3CCCCC3)c3[nH]cnc3n2)cc1 has a remaining activity of 98.2%.
Cc1cc2ncc(-c3ccccc3)nc2cc1C has a remaining activity of 95.9%.
With CCN(CC)CCNC(=O)c1c(C)[nH]c(/C=C2\C(=O)Nc3ccc(F)cc32)c1C the remaining activity was 82.6%.
